Assay results from different studies.
Protocols differ between the studies behind these lines.

| Compound | organism | method | strain | time | notes | with | MIC |
| --- | --- | --- | --- | --- | --- | --- | --- |
| CNC(C)C1CCC(N)C(OC2C(N)CC(N)C(OC3OCC(C)(O)C(NC)C3O)C2O)O1 (stereo not drawn) | Pseudomonas aeruginosa |  | clinical isolate RKI-No_612/16 |  |  |  | 8 µg/mL |
| N=C(N)c1ccc(OCCCCCOc2ccc(C(=N)N)cc2)cc1 | Escherichia coli |  | mcr-1 polymyxin-resistant | 20 h | compound alone |  | > 200 µg/mL |
| Cc1cc(-c2cn[nH]c2-c2cccc(OCc3cccc(C#N)c3)c2)cc(C)n1 | Akkermansia muciniphila | broth microdilution | BAA-835 |  | anaerobic conditions |  | > 128 µg/mL |
| CC(=O)N1CCN(c2ccc(OCC3COC(Cn4ccnc4)(c4ccc(Cl)cc4Cl)O3)cc2)CC1 (stereo not drawn) | Candida |  |  |  | twelve fungal strains |  | 4.76 µM |
| CC(C)C[C@@H]1NC(=O)[C@@H](Cc2ccccc2)NC(=O)[C@H](CCN)NC(=O)[C@@H](NC(=O)[C@H](CCN)NC(=O)[C@@H](N)[C@@H](C)O)CCNC(=O)[C@H]([C@@H](C)O)NC(=O)[C@H](CCN)NC(=O)[C@H](CCN)NC1=O | Escherichia coli |  | W3110 |  |  |  | > 200 µg/mL |
| O=c1c(O)c(-c2ccc(O)cc2)oc2cc(O[C@@H]3O[C@H](CO)[C@@H](O)[C@H](O)[C@H]3O)cc(O)c12 | Streptococcus mutans |  | ATCC 700610 |  |  |  | 100 µg/mL |
| CC(=O)NC[C@H]1CN(c2ccc(N3CCOCC3)c(F)c2)C(=O)O1 | Staphylococcus aureus | broth microdilution | vancomycin-resistant VRS11a |  |  |  | 2 µM |
| CC1(C)S[C@@H]2[C@H](NC(=O)[C@H](N)c3ccccc3)C(=O)N2[C@H]1C(=O)O | Salmonella enterica serovar Typhimurium | broth microdilution | clinical isolate RKI-No 437/14 |  |  |  | > 16 µg/mL |
| CC(=O)ON=C1C=CC(=C(C#N)c2ccccc2)C=C1 | Candida |  | clinical isolates |  | range for 70 of 100 strains |  | 16 to 128 µg/mL |
| CCCCCCCCCC(=O)N[C@@H](Cc1c[nH]c2ccccc12)C(=O)N[C@H](CC(N)=O)C(=O)N[C@@H](CC(=O)O)C(=O)N[C@@H]1C(=O)NCC(=O)N[C@@H](CCCN)C(=O)N[C@@H](CC(=O)O)C(=O)N[C@H](C)C(=O)N[C@@H](CC(=O)O)C(=O)NCC(=O)N[C@H](CO)C(=O)N[C@@H]([C@H](C)CC(=O)O)C(=O)N[C@@H](CC(=O)c2ccccc2N)C(=O)O[C@@H]1C | Staphylococcus aureus |  | SH1000 |  | no lipid |  | 1 µg/mL |
| N=C(N)c1ccc(OCc2cc(COc3ccc(C(=N)N)cc3)cc(-c3ccccc3)c2)cc1 | Escherichia coli |  | mcr-2 polymyxin-resistant | 20 h | compound alone |  | 100 µg/mL |
| CC1(C)SC2C(NC(=O)C(NC(=O)C3=C(O)C4(CC4)NC3=O)c3ccccc3)C(=O)N2C1C(=O)O (stereo not drawn) | Escherichia coli | broth microdilution | ATCC 25922 wild type |  |  | clavulanic acid 6 µg/mL | 25 µg/mL |

A few entries again:
| Compound | organism | method | strain | time | notes | with | MIC |
| --- | --- | --- | --- | --- | --- | --- | --- |
| CC1(C)SC2C(NC(=O)C(NC(=O)C3=C(O)C4(CC4)NC3=O)c3ccccc3)C(=O)N2C1C(=O)O (stereo not drawn) | Escherichia coli | broth microdilution | ATCC 25922 wild type |  |  | clavulanic acid 6 µg/mL | 25 µg/mL |
| N=C(N)c1ccc(OCc2cc(COc3ccc(C(=N)N)cc3)cc(-c3ccccc3)c2)cc1 | Escherichia coli |  | mcr-2 polymyxin-resistant | 20 h | compound alone |  | 100 µg/mL |
